Experimental data of several laboratories.
Every numbered part comes from another study and shows a few of its results, in no order. Positions count from the first letter of the parent shown.

Study 1
Target: Ras GTPase-activating protein-binding protein 1, C-terminal RGG region (G3BP1, Homo sapiens, UniProt Q13283)
Sequence of UniProt Q13283 (whole entry, looked up): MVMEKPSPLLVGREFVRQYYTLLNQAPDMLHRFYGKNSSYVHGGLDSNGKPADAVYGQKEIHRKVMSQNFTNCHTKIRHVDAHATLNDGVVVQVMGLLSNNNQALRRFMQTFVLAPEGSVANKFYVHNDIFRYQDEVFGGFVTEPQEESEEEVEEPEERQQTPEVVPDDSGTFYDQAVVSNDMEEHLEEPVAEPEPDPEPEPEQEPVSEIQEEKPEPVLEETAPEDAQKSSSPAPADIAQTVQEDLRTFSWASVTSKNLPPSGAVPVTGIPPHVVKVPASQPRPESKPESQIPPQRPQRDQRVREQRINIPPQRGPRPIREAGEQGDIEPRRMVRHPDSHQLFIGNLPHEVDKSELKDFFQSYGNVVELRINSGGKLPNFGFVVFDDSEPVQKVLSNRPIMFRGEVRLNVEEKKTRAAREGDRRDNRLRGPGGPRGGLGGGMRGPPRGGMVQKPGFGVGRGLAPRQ
Method: RNA Bind-n-Seq
Form: RNA
Matrix: in vitro
Concentration: 1 µM
Notes: whole 134-nt RNA, ends assumed
Together with: 150 mM KCl
Reference: input library
Reading: higher = stronger binding
Shared flanks, not repeated: GGGAGUUCUACAGUCCGACGAUC … UGGAAUUCUCGGGUGUCAAGG
Strand | log2 enrichment
UCAAGUCCUGUGCUACACAUCGUAUGUACCGAAUCGGGGAAGGGAAGGGGAAGGGAAAGUAUUAUGUUACGCCGUUCGGAUCUGCACUUC | 2.05
AGUCCUGUGCUACACAUCGUAUGUACCGAAUCGGGGAAAGGGGUUUGGGGAAAGGGGAAAGUAUUAUGUUACGCCGUUCGGAUCUGCACU | 4.02
CCUCAAGUCCUGUGCUACACAUCGUAUGUACCGAAUCGGUUGGUUGGGGUUGGAAAGUAUUAUGUUACGCCGUUCGGAUCUGCACUUCCA | -0.919
UGUGCUACACAUCGUAUGUACCGAAUCGGGGUUUUUUUGGGGUUUUUUUGGGGAAAAAGGGGAAAGUAUUAUGUUACGCCGUUCGGAUCU | -0.251
UCCUGUGCUACACAUCGUAUGUACCGAAUCAAAUUUUUUUAAACCCAAACCCCCCCAAAAAAGUAUUAUGUUACGCCGUUCGGAUCUGCA | -0.807
ACCAUGCAGGUGGGCAUCUUUGCGAAGUGGGGCAAGGGGGGGAUAGGGAGGGGGGUAACACUUUGGGAACAGGUGGUCCCAGGUCGUUUC | -0.932

Study 2
Target: RNA binding protein fox-1 homolog 2, RRM domain, GST-SBP tag (RBFOX2, Homo sapiens, UniProt O43251-10, residues 100-194)
Method: RNA Bind-n-Seq
Form: RNA
Matrix: in vitro
Concentration: 365 nM
Notes: natural RNA segment, single round, ends assumed
Reference: no-protein control
Reading: higher = stronger binding
Construct (chain): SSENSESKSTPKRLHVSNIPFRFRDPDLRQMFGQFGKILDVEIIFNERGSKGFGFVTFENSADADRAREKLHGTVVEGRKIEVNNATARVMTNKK
Strand | RBNS enrichment (R)
GGGAGUUCUACAGUCCGACGAUCUAUUAAGAAGGCACUUAAUAGUACAUCAUGUAAGAUGGCAACUGUAUUAAAGAAAAAUCCGGAAAACAAAUGUUUGAUUUUUGUUUUUGUUUUUAUCUUGUCUGUAGAGGUGGAAUUCUCGGGUGCCAA | 0.992
GGGAGUUCUACAGUCCGACGAUCGGAGGAGGAAGAGGAGGAAGAAAGAUGGUGGGAAAGACAUCCAAGACUUUCUCGCUUUCUAAAUGCGGCAAUUUCCUGGUACUGCCUUAAAGACACAGUGCCCUCCCUUCUGGAAUUCUCGGGUGCCAA | 0.243
GGGAGUUCUACAGUCCGACGAUCCUCCUUCUAUUAGGAAUGGCAUAUACUGAGGUGGUCGUAAGUCUUAACUUCUAAAAUUUUAAAUAAAGACUUUGCACAUUGAACCCCUUAUCCCUGAAUUGUGUUUGUCGUGGAAUUCUCGGGUGCCAA | 2.47
GGGAGUUCUACAGUCCGACGAUCAUGGUGCAUAGGUCUGGAAGGUCUGAUCUCCCUUGGUCUUCCAUGGGAUGGUUAGUGUGGAGGGGAGAUAUAGAUUGUCCGGCCGCUUUGUGAUUCCAUGGAUUGAUUCAUGGAAUUCUCGGGUGCCAA | 0.951

Other studies, line by line
P1: SLBP docking peptide (human); ARYKRKLLINDFG; partner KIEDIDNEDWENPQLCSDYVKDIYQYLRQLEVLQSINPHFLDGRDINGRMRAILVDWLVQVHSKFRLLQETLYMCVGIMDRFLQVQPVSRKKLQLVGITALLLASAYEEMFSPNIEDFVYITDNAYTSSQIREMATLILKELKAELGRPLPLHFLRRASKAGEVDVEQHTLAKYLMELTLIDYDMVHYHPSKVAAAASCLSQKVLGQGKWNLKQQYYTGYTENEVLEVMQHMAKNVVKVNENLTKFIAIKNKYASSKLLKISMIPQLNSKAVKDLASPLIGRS
P2: E2F1 docking peptide (human); PPVKRRLDFETDH; partner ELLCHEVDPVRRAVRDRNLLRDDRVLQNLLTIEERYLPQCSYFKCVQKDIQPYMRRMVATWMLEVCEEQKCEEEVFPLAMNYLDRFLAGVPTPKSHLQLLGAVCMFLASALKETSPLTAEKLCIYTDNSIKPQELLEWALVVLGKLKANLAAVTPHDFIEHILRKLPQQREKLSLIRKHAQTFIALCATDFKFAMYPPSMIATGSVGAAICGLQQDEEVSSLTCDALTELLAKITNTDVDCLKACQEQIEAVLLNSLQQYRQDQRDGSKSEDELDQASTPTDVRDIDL
P3: SLBP docking peptide (human); ARYKRKLLINDFG; partner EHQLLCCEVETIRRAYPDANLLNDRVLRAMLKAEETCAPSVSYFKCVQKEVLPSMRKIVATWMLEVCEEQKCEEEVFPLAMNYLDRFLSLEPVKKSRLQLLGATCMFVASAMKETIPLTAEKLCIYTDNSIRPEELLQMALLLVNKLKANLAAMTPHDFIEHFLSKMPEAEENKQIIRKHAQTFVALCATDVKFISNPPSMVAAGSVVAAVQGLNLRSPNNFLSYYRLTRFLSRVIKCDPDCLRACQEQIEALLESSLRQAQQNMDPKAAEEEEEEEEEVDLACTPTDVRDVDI
P4: BRCA2 docking peptide (human); PSIKRNLLNEFDR; partner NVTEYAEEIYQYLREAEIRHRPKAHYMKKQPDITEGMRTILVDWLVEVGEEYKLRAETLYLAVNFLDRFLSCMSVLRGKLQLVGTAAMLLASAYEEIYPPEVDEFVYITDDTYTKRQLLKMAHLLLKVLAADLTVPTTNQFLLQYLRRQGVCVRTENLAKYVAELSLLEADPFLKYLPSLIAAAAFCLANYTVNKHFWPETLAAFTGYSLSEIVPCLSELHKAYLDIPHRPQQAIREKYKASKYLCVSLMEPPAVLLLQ
Molecule | target | assay | test system | conditions | how to read | measurement | value
P1 N10V | CCNB2, cyclin fold, Cln2 fusion (human) | yeast growth competition, sequencing | yeast | weak parent motif | reference: not given, higher = stronger binding | normalised enrichment score | 0.785
PhoQ, residues 284 288 289 292 302 303 SNGLAW | PhoP, residues 12 14 15 18 19 TTLRV (Escherichia coli, UniProt P23836) | Sort-seq, refers to: YFP reporter | E. coli | PhoQ-PhoP variant library, together with: 10 µM Mg2+ | reference: high Mg2+ state, higher = stronger signaling | fold induction | 8.37
P2 R6I | CCND2, cyclin fold, Cln2 fusion (human) | yeast growth competition, sequencing | yeast | strong parent motif | reference: not given, higher = stronger binding | normalised enrichment score | 0.324
P3 D11S | CCND1, cyclin fold, Cln2 fusion (human) | yeast growth competition, sequencing | yeast | weak parent motif | reference: not given, higher = stronger binding | normalised enrichment score | 0.177
P4 N6G | CCNA1, cyclin fold, Cln2 fusion (human) | yeast growth competition, sequencing | yeast | weak parent motif | reference: not given, higher = stronger binding | normalised enrichment score | -0.715

A few entries again (study 2):
Strand | RBNS enrichment (R)
GGGAGUUCUACAGUCCGACGAUCAUGGUGCAUAGGUCUGGAAGGUCUGAUCUCCCUUGGUCUUCCAUGGGAUGGUUAGUGUGGAGGGGAGAUAUAGAUUGUCCGGCCGCUUUGUGAUUCCAUGGAUUGAUUCAUGGAAUUCUCGGGUGCCAA | 0.951
